Measured values collected from several papers.
Parts stem from different laboratories: compare values within a part only. Changes are numbered by the printed parent chain. ± gives the spread as reported.
Sequence of UniProt Q05655 (whole entry, looked up): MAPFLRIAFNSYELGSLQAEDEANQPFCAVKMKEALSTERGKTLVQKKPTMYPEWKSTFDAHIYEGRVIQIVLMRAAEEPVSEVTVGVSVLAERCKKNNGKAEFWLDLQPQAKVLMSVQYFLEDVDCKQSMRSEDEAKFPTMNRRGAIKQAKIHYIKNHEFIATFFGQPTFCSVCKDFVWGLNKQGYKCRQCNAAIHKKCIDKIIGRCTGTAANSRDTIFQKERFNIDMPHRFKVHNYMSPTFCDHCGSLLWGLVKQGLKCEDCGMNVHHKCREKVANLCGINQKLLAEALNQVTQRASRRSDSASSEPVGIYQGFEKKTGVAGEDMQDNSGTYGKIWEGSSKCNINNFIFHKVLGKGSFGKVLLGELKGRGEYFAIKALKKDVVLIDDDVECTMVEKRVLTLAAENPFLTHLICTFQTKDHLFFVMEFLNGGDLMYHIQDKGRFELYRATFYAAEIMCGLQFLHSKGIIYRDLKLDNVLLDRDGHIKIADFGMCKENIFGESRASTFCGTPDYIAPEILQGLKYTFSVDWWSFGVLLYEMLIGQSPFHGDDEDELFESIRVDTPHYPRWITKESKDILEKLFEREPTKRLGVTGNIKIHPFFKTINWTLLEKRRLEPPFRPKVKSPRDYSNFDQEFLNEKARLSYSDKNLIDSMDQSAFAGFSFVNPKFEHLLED

Series 1
Target: POU, POU domain (Salpingoeca helianthica)
Technique: Spec-seq
Form: double-stranded DNA, one strand shown
Sample: in vitro
Tested at: not given
Setting: whole probe, mean of replicates
Baseline: not given
Reading: lower = stronger binding
Measurement: relative binding energy
Shared flanks, not repeated: GAGTCGTCTCGTCAGCAC … CCGTAGAGCACTCAGGTC
Residues (chain): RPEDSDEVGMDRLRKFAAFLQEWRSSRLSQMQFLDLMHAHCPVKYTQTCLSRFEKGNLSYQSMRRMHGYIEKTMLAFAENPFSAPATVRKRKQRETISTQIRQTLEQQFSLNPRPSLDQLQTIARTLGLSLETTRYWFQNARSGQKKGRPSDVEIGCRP
ATACAAAT: 1.11 ln ratio
TGGATAAT: 0.447 ln ratio
TACGTAAT: 0.532 ln ratio
TTTATAAT: -0.442 ln ratio
ATGCCGTG: 1.29 ln ratio
ATACTGAT: 1.5 ln ratio
GCGCTAAT: 0.605 ln ratio
TGTGTAAT: 0.586 ln ratio

Series 2
Target: BATF2, bZIP domain (human)
Technique: DHFR protein complementation
Sample: yeast
Setting: single substitutions, most at no-binding floor
Baseline: wild-type JUN-FOS pair
Reading: higher = stronger binding
Measurement: binding fitness
Parent: JUN, bZIP domain (human); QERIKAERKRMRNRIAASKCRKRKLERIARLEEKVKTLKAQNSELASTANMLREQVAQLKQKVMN; partner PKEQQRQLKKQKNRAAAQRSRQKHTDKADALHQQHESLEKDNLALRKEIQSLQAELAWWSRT
S43P: -1.37 natural log
R53D: -1.32 natural log
L31M: -0.32 natural log
V35R: -1.38 natural log
R30I: -0.238 natural log
L59H: -0.661 natural log
K34A: -0.155 natural log
A49Y: -0.94 natural log

Single results of other studies
CN1CCN(c2ccc3nc(-c4c(N)c5c(F)cccc5[nH]c4=O)[nH]c3c2)CC1
remaining activity (Protein kinase C delta type (PRKCD, Homo sapiens, UniProt Q05655); enzyme activity, inhibitor; 0.5 µM; baseline: control): 90.9%

COc1cc(C(=O)N2CCC(N3CCN(C)CC3)CC2)ccc1Nc1ncc2c(n1)N(C)c1ccccc1C(=O)N2C
remaining activity (MST2; kinase activity; 1 µM): 100 ± 12%
